Assay results collected from several papers.
Numbers after ± are the reported error.
NPFFR1: Neuropeptide FF receptor 1 (NPFFR1, Homo sapiens, UniProt Q9GZQ6)
Methyl-accepting chemotaxis protein CtaA sensing domain: Methyl-accepting chemotaxis protein CtaA, sensing domain (Pseudomonas fluorescens, UniProt Q3K7T6)
PLA2G6: 85/88 kDa calcium-independent phospholipase A2 (PLA2G6, Homo sapiens, UniProt O60733)

CNC(=O)c1ccc(CCNC(=O)[C@@H]2C[C@H](NCc3ccc(OC)cc3)CN2Cc2ccccc2Cl)cc1 — Kb (NPFFR1; calcium mobilization, antagonist; CHO; 15 min, added: NPFF): > 10 µM
CCOC(=O)Nc1ccc(SCc2cc(OC)cc(OC)c2)nc1N — EC50 (Voltage-gated potassium channel, KQT; KCNQ2(Kv7.2)/KCNQ3(Kv7.3) (KCNQ3/KCNQ2, Homo sapiens, UniProt O43525+O43526); thallium flux, opener, fluorescence thallium flux; HEK293 expressing KV7.2/3; 30 min): > 10 µM
CC(C)[C@H](N)C(=O)O — Kd (Methyl-accepting chemotaxis protein CtaA sensing domain; binding, thermal shift, curve fitting): 0.5 ± 0.1 µM
CCC[C@H]1OC(=O)[C@@H]1CCCc1ccc(OC)cc1 (racemic) — XI(50) (PLA2G6; enzyme activity, inhibitor, mixed micelle; 50% inhibition): 0.00019 mole fraction
C#C[C@]1(COP(=O)(O)OP(=O)(O)OP(=O)(O)O)O[C@@H](n2cnc3c(N)nc(F)nc32)C[C@@H]1O — half-life (human PBMC tumour model; host not given, plasma; oral, 30 mg, single dose, fasted): 118 h
[O-][S+](c1ccccc1)c1ccc2nnnn2n1 (centres unmarked) — EC50 (HEK293 NF-κB luciferase reporter; NF-κB reporter gene, antagonist; 24 h, added: TNFα 5 ng/mL): < 0.001 µM
CCC[C@H]1OC(=O)[C@@H]1CCCc1ccccc1 (racemic) — XI(50) (PLA2G6; enzyme activity, inhibitor, mixed micelle; 50% inhibition): 0.00019 mole fraction
O=S(=O)(Nc1cccn(O)c1=S)c1ccc(Br)s1 — Ki (IDE (Homo sapiens, UniProt P14735); substrate degradation, inhibitor; mean of insulin, Aβ, substrate V): 7 µM
O=C(CSc1nnc(NCc2ccccc2)s1)NCC1CCCCC1 — Kb (Glutamate NMDA receptor; Grin1/Grin2a (Grin1/Grin2a, Rattus norvegicus, UniProt P35439+Q00959); ion current, antagonist, two-electrode voltage clamp; Xenopus laevis oocytes; mean of individual Schild values): 2.2 ± 0.2 µM
Cc1nc(-c2ccc(OCC(C)C)c(C#N)c2)sc1C(=O)NC1CCOCC1 — EC50 (Grm2/Grm4 (Rattus norvegicus, UniProt P31421+P31423); positive allosteric modulator, thallium flux; HEK293 with GIRK; added: EC20 glutamate): 5.2 µM
C[C@@H]1CN(c2ccc(-c3cc(C(=O)NCCOCCOCCOCCOCCOCCOCCOCCOCCOCCNC(=O)/C=C/c4[nH]cc(C(=O)N[C@@H](CC(N)=O)c5ccc(F)c(Cl)c5)c4-c4ccc(Cl)cc4F)ccc3F)cc2NC(=O)c2c[nH]c(=O)cc2C(F)(F)F)C[C@H](C)N1C — DC50 (WDR5/DCAF1 (Homo sapiens, UniProt P61964+Q9Y4B6); degrader, refers to: HiBiT-WDR5; MV4-11 expressing HiBiT-WDR5; 24 h): 0.0402 ± 0.0121 µM
CCCC(C)O (centres unmarked) — EC50 (Or22a (Drosophila melanogaster, UniProt P81909); neuronal calcium response, agonist, in vivo calcium imaging; antennal neurons; headspace concentration, partial maximum): 32.7 ppm
Nc1ncnc2c1ncn2[C@@H]1O[C@H](COP(=O)(O)O)[C@@H](O)[C@H]1O — EC50 (5'-AMP-activated protein kinase subunit gamma-1, with alpha1 beta2 (PRKAG1, Homo sapiens, UniProt P54619); conformational change, AlphaScreen; α1β2γ1 AMPK): 0.95 µM
Cn1nc2c3c(cccc31)C(=O)c1ccccc1-2 — IC50 (HeLa expressing ODD-Luc; ODD-Luc degradation, inhibitor, cycloheximide chase luciferase): 0.15 ± 0.01 µM
Cc1cc(NC(=O)CS(=O)(=O)c2cn(Cc3ccccc3Cl)c3ccccc23)no1 — EC50 (Chrm1 (Rattus norvegicus, UniProt P08482); calcium signal, agonist): > 13 µM
COc1ccc(CN[C@H]2C[C@@H](C(=O)NCCc3ccc(N(C)C)cc3)N(Cc3ccccc3Cl)C2)cc1 — Kb (NPFFR1; calcium mobilization, antagonist; CHO; 15 min, added: NPFF): 1.2 ± 0.25 µM
C[C@H](N)C(=O)O — Kd (Methyl-accepting chemotaxis protein CtaA sensing domain; binding, thermal shift, zero heat capacity; 25 °C): 6.3 ± 0.4 µM
CC(C)(C)c1ccc(S(=O)(=O)/C=C/C#N)cc1 — EC50 (HEK293 NF-κB luciferase reporter; NF-κB reporter gene, antagonist; 24 h, added: TNFα 5 ng/mL): 31.7 µM
Cc1ccc(NC2=CC(=O)c3sc(C)nc3C2=O)cc1 — IC50 (HeLa expressing ODD-Luc; ODD-Luc degradation, inhibitor, cycloheximide chase luciferase): 8 ± 2 µM
COc1ccc(CN[C@H]2C[C@@H](C(=O)NCCc3ccc(F)cc3)N(Cc3ccccc3Cl)C2)cc1 — Kb (Neuropeptide FF receptor 2 (Homo sapiens, UniProt Q9Y5X5); calcium signal, antagonist, fluorescence): > 10 µM
CC(C)[C@H](NC(=O)[C@@H]1CCCN1C(=O)[C@H](CCCNC(=N)N)NC(=O)[C@H](CS)NC(=O)[C@H](Cc1c[nH]c2ccccc12)NC(=O)[C@H](CCCNC(=N)N)NC(=O)[C@@H](Cc1ccccc1)NC(=O)[C@H](Cc1c[nH]cn1)NC(=O)[C@H](CCC(=O)O)NC(=O)[C@H](CS)NC(=O)[C@H](CS)NC(=O)[C@H](CCCCN)NC(=O)[C@@H]1CC(=O)N[C@@H](CCCNC(=N)N)C(=O)N[C@@H](C)C(=O)N[C@@H](CC(=O)O)C(=O)N[C@H](Cc2ccc(O)cc2)C(=O)N1)C(N)=O [technetium-99m labelled] — tissue uptake (C57 mice, blood; intravenous, 0.037 MBq, 2 h): 0.49 ± 0.31 %ID/g
Nc1ncnc2c1ncn2[C@@H]1O[C@H](COP(=O)(O)OP(=O)(O)OC[C@H]2O[C@@H](O)C(O)[C@H]2O)C(O)[C@@H]1OP(=O)(O)O (some centres unmarked) — EC50 (TRPM2 (Nematostella vectensis, UniProt A7T1N0, R329A); channel activation, agonist, inside-out patch clamp; estimate uncertain, added: 125 µM Ca2+ and 2.5 µM PIP2): 121 ± 7 µM
N[C@@H](CO)C(=O)O — Kd (Methyl-accepting chemotaxis protein CtaA (Pseudomonas fluorescens, UniProt Q3K7T6); binding, ITC; melting temperature): 13 ± 1 µM

Repeated from above:
CCC[C@H]1OC(=O)[C@@H]1CCCc1ccc(OC)cc1 (racemic) — XI(50) (PLA2G6; enzyme activity, inhibitor, mixed micelle; 50% inhibition): 0.00019 mole fraction
C#C[C@]1(COP(=O)(O)OP(=O)(O)OP(=O)(O)O)O[C@@H](n2cnc3c(N)nc(F)nc32)C[C@@H]1O — half-life (human PBMC tumour model; host not given, plasma; oral, 30 mg, single dose, fasted): 118 h
[O-][S+](c1ccccc1)c1ccc2nnnn2n1 (centres unmarked) — EC50 (HEK293 NF-κB luciferase reporter; NF-κB reporter gene, antagonist; 24 h, added: TNFα 5 ng/mL): < 0.001 µM
